Measurements pooled from the literature.
± gives the spread as reported.
APP amyloid-beta peptide: Amyloid-beta precursor protein, amyloid-beta peptide (APP, Homo sapiens, UniProt P05067)

Amino acid sequences for entries named in this document (tags omitted). A change or cut given only in a name is not applied to a line headed by its entry. Residues count along the entry.
UniProt Q99497, whole entry: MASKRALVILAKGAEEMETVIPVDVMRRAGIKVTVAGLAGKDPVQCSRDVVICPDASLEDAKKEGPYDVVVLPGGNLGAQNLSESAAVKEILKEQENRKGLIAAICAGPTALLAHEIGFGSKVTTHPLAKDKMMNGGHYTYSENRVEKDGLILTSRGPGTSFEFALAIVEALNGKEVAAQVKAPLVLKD
UniProt P03372, whole entry: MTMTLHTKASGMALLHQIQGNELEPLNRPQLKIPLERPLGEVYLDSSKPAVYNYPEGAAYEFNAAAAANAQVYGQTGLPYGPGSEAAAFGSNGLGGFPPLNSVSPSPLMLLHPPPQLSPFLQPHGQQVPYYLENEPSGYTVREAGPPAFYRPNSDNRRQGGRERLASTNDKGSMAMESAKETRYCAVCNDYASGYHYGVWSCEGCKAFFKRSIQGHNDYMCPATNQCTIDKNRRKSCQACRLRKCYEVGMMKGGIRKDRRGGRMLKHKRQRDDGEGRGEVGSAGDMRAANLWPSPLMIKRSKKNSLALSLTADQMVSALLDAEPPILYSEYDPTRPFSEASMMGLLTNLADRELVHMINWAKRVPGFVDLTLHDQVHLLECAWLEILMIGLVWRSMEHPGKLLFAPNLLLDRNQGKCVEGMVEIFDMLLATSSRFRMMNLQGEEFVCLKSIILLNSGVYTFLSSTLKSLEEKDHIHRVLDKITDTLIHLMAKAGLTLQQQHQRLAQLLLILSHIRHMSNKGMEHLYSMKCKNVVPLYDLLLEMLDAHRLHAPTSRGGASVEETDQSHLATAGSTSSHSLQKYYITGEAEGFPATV
UniProt P46116, whole entry: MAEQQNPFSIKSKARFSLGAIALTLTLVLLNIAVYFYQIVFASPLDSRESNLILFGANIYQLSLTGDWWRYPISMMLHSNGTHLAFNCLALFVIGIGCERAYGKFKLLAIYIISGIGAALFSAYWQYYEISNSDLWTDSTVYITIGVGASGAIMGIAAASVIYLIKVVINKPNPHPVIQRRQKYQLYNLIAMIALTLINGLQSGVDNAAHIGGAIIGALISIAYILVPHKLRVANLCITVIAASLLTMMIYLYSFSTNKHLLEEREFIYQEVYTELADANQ
UniProt P22455, 22-802 limits assumed: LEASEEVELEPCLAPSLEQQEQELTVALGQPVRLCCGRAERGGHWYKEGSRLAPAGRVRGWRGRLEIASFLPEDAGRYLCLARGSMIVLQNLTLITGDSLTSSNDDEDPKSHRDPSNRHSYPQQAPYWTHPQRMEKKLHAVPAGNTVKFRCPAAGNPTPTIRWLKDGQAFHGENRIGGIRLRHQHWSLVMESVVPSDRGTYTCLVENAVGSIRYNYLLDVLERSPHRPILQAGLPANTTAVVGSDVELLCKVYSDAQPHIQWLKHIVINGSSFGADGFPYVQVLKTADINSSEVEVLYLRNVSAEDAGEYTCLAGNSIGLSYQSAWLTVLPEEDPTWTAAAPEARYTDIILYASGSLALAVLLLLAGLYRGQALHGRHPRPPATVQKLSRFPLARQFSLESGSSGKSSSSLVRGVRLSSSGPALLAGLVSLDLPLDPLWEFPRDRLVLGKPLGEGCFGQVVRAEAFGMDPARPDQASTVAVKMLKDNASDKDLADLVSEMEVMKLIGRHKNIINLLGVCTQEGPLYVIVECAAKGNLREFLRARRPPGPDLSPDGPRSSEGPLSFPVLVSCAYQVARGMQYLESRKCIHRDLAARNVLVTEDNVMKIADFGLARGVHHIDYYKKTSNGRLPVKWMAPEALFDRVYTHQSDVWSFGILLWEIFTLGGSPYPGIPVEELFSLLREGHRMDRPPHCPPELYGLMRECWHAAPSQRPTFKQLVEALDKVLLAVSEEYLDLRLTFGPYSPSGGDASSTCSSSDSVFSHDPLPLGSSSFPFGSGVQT
UniProt P29466, whole entry, looked up: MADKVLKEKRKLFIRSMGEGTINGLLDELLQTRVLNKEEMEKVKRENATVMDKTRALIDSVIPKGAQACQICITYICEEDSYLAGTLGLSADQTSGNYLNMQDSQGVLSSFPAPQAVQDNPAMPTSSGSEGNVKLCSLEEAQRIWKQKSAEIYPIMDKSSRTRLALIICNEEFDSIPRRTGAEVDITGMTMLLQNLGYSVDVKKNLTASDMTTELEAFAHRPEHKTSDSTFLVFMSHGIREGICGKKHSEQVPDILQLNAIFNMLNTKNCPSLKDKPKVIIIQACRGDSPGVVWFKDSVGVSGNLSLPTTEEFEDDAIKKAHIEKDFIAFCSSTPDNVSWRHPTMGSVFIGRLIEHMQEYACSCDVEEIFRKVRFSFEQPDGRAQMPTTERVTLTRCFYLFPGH
UniProt Q00959, 23-1464 limits assumed: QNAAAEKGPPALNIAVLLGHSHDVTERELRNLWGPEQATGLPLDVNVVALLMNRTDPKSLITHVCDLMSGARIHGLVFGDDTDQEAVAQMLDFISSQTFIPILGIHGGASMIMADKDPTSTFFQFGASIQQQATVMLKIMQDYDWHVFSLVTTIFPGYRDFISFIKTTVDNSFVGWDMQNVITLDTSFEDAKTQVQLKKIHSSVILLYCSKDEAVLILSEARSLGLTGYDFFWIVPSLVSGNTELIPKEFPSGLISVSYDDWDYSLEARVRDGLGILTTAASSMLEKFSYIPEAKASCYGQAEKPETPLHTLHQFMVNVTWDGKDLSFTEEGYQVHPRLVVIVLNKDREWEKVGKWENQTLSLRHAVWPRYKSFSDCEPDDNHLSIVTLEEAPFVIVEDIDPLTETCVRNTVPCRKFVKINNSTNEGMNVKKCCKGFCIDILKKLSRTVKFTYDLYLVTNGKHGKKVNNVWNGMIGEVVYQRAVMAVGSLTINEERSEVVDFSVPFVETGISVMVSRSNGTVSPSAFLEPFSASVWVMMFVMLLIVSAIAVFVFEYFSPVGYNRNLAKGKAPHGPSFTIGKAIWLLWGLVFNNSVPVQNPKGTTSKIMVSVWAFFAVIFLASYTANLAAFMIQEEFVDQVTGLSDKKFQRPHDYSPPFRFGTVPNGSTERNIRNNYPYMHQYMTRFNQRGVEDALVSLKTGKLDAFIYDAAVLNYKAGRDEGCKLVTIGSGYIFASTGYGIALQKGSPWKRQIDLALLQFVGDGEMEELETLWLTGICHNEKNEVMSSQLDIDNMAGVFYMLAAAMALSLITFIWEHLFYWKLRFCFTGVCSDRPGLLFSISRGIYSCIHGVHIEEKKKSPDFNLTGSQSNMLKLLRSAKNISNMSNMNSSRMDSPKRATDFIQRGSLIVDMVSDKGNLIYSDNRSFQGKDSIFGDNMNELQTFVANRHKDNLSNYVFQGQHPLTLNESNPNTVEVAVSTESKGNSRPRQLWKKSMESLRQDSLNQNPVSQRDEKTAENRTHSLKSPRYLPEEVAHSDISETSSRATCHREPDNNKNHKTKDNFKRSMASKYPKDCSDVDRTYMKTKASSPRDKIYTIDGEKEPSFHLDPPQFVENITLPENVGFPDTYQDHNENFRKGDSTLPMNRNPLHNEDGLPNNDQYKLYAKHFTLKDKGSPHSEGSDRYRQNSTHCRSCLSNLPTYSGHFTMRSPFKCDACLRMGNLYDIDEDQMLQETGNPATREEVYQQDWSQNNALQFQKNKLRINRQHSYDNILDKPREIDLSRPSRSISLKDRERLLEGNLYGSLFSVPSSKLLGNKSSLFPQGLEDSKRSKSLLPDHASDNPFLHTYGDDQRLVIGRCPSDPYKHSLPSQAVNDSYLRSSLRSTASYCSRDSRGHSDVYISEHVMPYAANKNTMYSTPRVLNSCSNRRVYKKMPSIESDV
UniProt Q8TF76, whole entry: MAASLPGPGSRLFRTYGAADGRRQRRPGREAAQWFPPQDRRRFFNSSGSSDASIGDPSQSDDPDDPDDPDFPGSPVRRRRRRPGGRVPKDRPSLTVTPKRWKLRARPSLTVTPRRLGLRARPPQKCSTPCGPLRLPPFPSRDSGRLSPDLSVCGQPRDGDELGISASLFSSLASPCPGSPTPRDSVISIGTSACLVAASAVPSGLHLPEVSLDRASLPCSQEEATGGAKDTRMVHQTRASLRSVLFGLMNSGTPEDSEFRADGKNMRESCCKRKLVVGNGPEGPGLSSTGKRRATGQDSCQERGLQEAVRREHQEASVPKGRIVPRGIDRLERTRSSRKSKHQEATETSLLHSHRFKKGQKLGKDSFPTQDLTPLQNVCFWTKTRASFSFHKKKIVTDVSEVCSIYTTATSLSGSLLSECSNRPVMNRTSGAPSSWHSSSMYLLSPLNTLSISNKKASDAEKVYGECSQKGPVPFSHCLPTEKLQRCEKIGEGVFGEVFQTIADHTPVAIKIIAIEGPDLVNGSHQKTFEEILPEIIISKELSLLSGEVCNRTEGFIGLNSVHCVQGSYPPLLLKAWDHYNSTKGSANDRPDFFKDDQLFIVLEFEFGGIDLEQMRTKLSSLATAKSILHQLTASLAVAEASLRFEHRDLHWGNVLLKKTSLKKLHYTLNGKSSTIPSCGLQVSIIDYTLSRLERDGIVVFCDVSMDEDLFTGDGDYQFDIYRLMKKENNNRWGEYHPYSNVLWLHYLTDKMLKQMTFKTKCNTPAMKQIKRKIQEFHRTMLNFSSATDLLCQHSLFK
UniProt P56817, whole entry, looked up: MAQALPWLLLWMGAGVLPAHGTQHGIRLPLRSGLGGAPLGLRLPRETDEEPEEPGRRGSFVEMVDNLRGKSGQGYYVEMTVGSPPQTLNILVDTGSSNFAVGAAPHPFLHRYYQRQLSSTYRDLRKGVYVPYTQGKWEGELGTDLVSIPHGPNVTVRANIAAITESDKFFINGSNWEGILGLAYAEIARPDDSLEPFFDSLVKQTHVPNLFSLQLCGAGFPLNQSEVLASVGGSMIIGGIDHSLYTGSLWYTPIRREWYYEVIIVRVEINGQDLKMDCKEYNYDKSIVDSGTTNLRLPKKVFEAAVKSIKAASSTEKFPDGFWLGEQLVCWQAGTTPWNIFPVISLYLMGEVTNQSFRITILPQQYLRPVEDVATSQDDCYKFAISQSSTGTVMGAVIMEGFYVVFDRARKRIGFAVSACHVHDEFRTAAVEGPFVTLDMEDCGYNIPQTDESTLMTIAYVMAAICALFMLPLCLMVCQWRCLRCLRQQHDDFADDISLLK
UniProt Q13304, whole entry: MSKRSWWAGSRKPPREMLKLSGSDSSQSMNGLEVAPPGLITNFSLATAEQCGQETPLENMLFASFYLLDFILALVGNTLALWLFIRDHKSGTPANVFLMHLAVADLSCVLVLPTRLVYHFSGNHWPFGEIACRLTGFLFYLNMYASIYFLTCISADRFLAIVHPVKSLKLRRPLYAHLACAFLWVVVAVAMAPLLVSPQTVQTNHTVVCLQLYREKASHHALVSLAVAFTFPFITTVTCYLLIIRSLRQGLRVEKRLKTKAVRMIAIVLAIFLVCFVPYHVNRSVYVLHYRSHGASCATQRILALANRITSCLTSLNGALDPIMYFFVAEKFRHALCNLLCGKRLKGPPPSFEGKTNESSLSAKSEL
UniProt Q04609, whole entry: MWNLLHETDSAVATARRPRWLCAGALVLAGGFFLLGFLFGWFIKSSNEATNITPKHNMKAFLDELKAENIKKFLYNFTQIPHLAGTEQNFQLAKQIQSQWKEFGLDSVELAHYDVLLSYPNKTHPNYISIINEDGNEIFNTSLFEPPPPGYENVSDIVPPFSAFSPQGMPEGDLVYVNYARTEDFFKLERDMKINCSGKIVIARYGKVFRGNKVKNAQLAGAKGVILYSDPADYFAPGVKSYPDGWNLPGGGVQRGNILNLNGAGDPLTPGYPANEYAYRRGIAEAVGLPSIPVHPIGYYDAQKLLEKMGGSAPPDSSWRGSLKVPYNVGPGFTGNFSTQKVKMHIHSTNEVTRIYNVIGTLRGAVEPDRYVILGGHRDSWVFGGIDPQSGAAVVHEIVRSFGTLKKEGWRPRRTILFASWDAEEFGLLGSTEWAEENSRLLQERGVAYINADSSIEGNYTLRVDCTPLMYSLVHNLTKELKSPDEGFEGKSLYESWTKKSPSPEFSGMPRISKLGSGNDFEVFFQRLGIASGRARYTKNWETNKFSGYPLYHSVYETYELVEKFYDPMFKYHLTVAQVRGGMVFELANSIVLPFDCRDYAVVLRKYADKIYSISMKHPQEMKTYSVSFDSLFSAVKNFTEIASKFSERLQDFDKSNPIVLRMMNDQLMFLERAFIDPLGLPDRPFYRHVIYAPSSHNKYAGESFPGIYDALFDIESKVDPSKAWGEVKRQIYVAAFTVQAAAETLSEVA
UniProt P53779, 1-422 isoform 2: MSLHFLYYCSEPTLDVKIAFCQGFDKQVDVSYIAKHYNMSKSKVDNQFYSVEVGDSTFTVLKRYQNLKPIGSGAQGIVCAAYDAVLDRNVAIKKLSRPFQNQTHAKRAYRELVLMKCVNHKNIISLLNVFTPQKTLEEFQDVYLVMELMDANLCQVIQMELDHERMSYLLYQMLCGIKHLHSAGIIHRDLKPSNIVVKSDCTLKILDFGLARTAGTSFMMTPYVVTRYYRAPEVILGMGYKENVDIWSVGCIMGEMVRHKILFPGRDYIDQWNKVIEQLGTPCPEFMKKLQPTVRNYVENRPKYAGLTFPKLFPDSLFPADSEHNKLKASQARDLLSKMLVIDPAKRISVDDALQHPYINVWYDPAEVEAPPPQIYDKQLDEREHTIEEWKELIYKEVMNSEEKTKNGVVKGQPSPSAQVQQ

`Nc1ncc(-c2ccc3ncnc(N4CCc5cc(F)c(Cl)cc54)c3c2)cn1` has a dose-normalised AUC(0-t) of 790 mg·h/mL (CD1 mouse, plasma; intraperitoneal, 50 mg/kg).
With `Nc1nc2c(ncn2COCCNC(=O)CCCCNC(=O)c2cc3cc(Br)ccc3c(Br)c2O)c(=O)[nH]1` the IC50 was 16 ± 7 µM (Deoxynucleoside triphosphate triphosphohydrolase SAMHD1 (SAMHD1, Homo sapiens, UniProt Q9Y3Z3); dNTPase activity, inhibitor, malachite green; with: dATP and GTP).
For `O=C1C(=O)N(CCc2ccccc2)c2ccc(F)cc21`, the IC50 was 0.28 µM (Parkinson disease protein 7 (PARK7, Homo sapiens, UniProt Q99497); glyoxalase activity, inhibitor; pH 7.0, 1% DMSO, with: phenylglyoxal 2 µM).
`COC(=O)[C@@H]1C(c2nc3cc(C(F)(F)F)ccc3s2)=Cc2cc3c(cc2[C@H]1c1cc(OC)c(OC)c(OC)c1)OCO3` has a selectivity index of greater than 2.4 (Leishmania infantum; Alamar Blue; HepG2; relative to: CC50 HepG2 over EC50 amastigotes).
The IC50 of `COc1cc(Nc2ccnc3cc(Cl)ccc23)cc(OC)c1OC` is reported as greater than 10 µM (Serine/threonine-protein kinase N3 (PKN3, Homo sapiens, UniProt Q6P5Z2); target engagement, NanoBRET; HEK293).
`CC(C)CNC(=O)CSc1nc2ccc(NC(=O)CSc3cccc(Cl)c3)cc2s1` has an IC50 of 20 to 50 µM (Estrogen receptor (ESR1, Homo sapiens, UniProt P03372); reporter gene, antagonist; HEC-1 transfected ERα luciferase reporter).
`COc1ccc2[nH]cc(/C=C/c3cccnc3)c2c1` gave an IC50 of greater than 20 µM (APP amyloid-beta peptide; Aβ42 oligomerisation, ELISA).
For `CC(=NNC(N)=NO)c1ccc(NC(=O)c2cc3cccc([N+](=O)[O-])c3[nH]2)cc1`, the IC50 was greater than 100 µM (Serine/threonine-protein kinase Chk1 (CHEK1, Homo sapiens, UniProt O14757); kinase activity, inhibitor, IMAP fluorescence polarisation; 60 min).
With `CN1CCc2cc(Nc3cnn(C)c(=O)c3Cl)ccc2C1` the IC50 was 0.9 ± 0.2 µM (Nucleosome-remodeling factor subunit BPTF, bromodomain (BPTF, Homo sapiens, UniProt Q12830); target engagement, inhibitor, NanoBRET displacement; HEK293T).
The IC50 of `COc1cc(Cl)ccc1NC(=O)C(C(F)(F)F)C(F)(F)F` is reported as 3.5 µM (Rhomboid protease AarA (Providencia stuartii, UniProt P46116); inhibitor, fluorogenic peptide substrate).
With `CC(=O)N1CCN(c2ccc(Nc3ncc4c(n3)N(C)C(=O)N(c3cc(NC(=O)c5cccc(C(F)(F)F)c5)ccc3C)C4)cn2)CC1` the IC50 was less than 0.001 µM (Fibroblast growth factor receptor 4 (FGFR4, Homo sapiens, UniProt P22455); enzyme activity, inhibitor, radiometric kinase).
The selectivity index of `CCOC(=O)COC(=O)[C@@H]1C(C=O)=Cc2cc3c(cc2[C@H]1c1cc(OC)c(OC)c(OC)c1)OCO3` is reported as 2.4 (Leishmania infantum; Alamar Blue; HepG2; relative to: CC50 HepG2 over EC50 amastigotes).
The IC50 of `O=C(CN1C(=O)C=CC1=O)N1CCN(c2cc(N3CCCC3)nc(N3CCCC3)n2)CC1` is reported as 0.467 ± 0.116 µM (Caspase-1 (CASP1, Homo sapiens, UniProt P29466); inhibitor; 15 min preincubation).
With `O=C(O)c1cc(C(=O)N[C@@H](Cc2ccc(O)cc2)C(=O)O)cc([C@H]2CCN[C@@H]2C(=O)O)c1` the IC50 was 1.87 ± 0.08 µM (Glutamate receptor ionotropic, NMDA 2A, with GluN1 (Grin2a, Rattus norvegicus, UniProt Q00959); ion current, antagonist, two-electrode voltage clamp; Xenopus oocytes; GluN1/GluN2A, with: glycine 100 µM and glutamate 1 µM).
For `CCOC(=O)C1=C(C)NC2=C(C(=O)CC(C)(C)C2)C1c1ccc(OCC(=O)NN=Cc2cccc(C=O)c2)cc1OCC(=O)NN=Cc1cccc(C=O)c1` (stereo not shown), “inhibition zone diameter” read 5.6 ± 0.2 mm (Listeria monocytogenes; NCTC 5348; concentration not given, 24 h).
For `Cc1ncsc1-c1ccc([C@H](C)NC(=O)[C@@H]2C[C@@H](O)CN2C(=O)[C@@H](NC(=O)CCCCCCC(=O)N2CCN(C[C@]3(C)CCC(c4ccc(Cl)cc4)=C(CN4CCN(c5ccc(C(=O)NS(=O)(=O)c6ccc(N[C@H](CCN7CCOCC7)CSc7ccccc7)c(S(=O)(=O)C(F)(F)F)c6)cc5)CC4)C3)CC2)C(C)(C)C)cc1`, mRNA level read “no effect” (measured: Cdkn2a; naturally aged mice, lung; intraperitoneal, 5 mg/kg every 3 days).
For `COc1ccc2nc3ccc(C)cc3c(SCCCN)c2c1`, the IC50 was 0.07 µM (Serine/threonine-protein kinase haspin (HASPIN, Homo sapiens, UniProt Q8TF76); inhibitor, TR-FRET; with: histone H3 peptide).
For `C=C(C)C1CCC(C)=CC1c1c(O)cc(O)c2c(=O)c(-c3ccc(O)cc3)coc12` (stereo not shown), the IC50 was greater than 90 µM (Beta-secretase 1 (BACE1, Homo sapiens, UniProt P56817); enzyme activity, inhibitor, enzyme fragment complementation chemiluminescence, measured: amyloid precursor protein cleavage; 16 h).
The IC50 of `O=C(Nc1ccc(Cl)cc1)C(NS(=O)(=O)c1cccs1)c1ccccc1` (single isomer, unassigned) is reported as 12.6 ± 0.28 µM (Uracil nucleotide/cysteinyl leukotriene receptor, long isoform (GPR17, Homo sapiens, UniProt Q13304); calcium mobilization, antagonist; 1321-N1).
`CS(=O)(=O)Oc1cccc(/C=C/c2c[nH]c3ccc(F)cc23)c1` gave an IC50 of 17.8 µM (APP amyloid-beta peptide; Aβ42 oligomerisation, ELISA).
With `[N-]=[N+]=NCS(=O)(=O)NC(CCC(=O)O)C(=O)O` (stereo not shown) the IC50 was greater than 100 µM (Glutamate carboxypeptidase 2 (FOLH1, Homo sapiens, UniProt Q04609); enzyme activity, inhibitor, HPLC; 15 min, pH 7.4, 37 °C, 1% Triton X-100, with: 10 mM glutamate dipeptide substrate).
The IC50 of `O=C(c1ccc(O)c(Cl)c1)N1Cc2ccccc2C1` is reported as 4.69 ± 0.27 µM (Heat shock protein HSP 90-alpha (HSP90AA1, Homo sapiens, UniProt P07900); binding, fluorescence polarization; with: FITC-geldanamycin tracer).
With `Cc1ncsc1-c1ccc(CNC(=O)[C@@H]2C[C@@H](O)CN2C(=O)c2cccc(Br)c2)cc1` the IC50 was 7.7 ± 0.4 µM (von Hippel-Lindau disease tumor suppressor, with elongin B, C (VHL, Homo sapiens, UniProt P40337); binding, fluorescence polarization; 10% DMSO, with: FAM-HIF1α peptide tracer).
The IC50 of `COc1cccc(C(=O)Nc2ccc(-c3nc4ccccc4[nH]3)cc2)c1` is reported as greater than 100 µM (Tyrosine-protein kinase SYK, with FCER1G (SYK, Homo sapiens, UniProt P43405); protein binding, inhibitor, TR-FRET).
With `COC(=O)[C@@]1(C)C=C(C(=O)Nc2cccc(C(=O)NC34CC(Nc5nccc(-c6cccnc6)n5)(C3)C4)c2)C(=O)CC1` the remaining activity was 0.226 fraction of control (Mitogen-activated protein kinase 10 (MAPK10, Homo sapiens, UniProt P53779); enzyme activity, inhibitor; 0.06097 µM).

A few entries again:
The IC50 of `COc1cc(Cl)ccc1NC(=O)C(C(F)(F)F)C(F)(F)F` is reported as 3.5 µM (Rhomboid protease AarA (Providencia stuartii, UniProt P46116); inhibitor, fluorogenic peptide substrate).
With `CC(=O)N1CCN(c2ccc(Nc3ncc4c(n3)N(C)C(=O)N(c3cc(NC(=O)c5cccc(C(F)(F)F)c5)ccc3C)C4)cn2)CC1` the IC50 was less than 0.001 µM (Fibroblast growth factor receptor 4 (FGFR4, Homo sapiens, UniProt P22455); enzyme activity, inhibitor, radiometric kinase).
The selectivity index of `CCOC(=O)COC(=O)[C@@H]1C(C=O)=Cc2cc3c(cc2[C@H]1c1cc(OC)c(OC)c(OC)c1)OCO3` is reported as 2.4 (Leishmania infantum; Alamar Blue; HepG2; relative to: CC50 HepG2 over EC50 amastigotes).
